Published values of several laboratories.
Every numbered part comes from another study and shows a few of its results, in no order.

Set 1
Target: Interferon regulatory factor 7, full length, phosphomimetic (IRF7, Homo sapiens, UniProt Q92985, residues 1-503, S101K/S471D/S472D/S475D/S476D/S477D/S483D/S484D/S487D)
Technique: protein-binding microarray
Form: double-stranded DNA, one strand shown
Sample: in vitro
Concentration: 250 nM
Setting: 60-bp whole probe
Added: salmon DNA 0.4 mg/ml
Relative to: random background probes
Reading: higher = stronger binding
Construct (chain): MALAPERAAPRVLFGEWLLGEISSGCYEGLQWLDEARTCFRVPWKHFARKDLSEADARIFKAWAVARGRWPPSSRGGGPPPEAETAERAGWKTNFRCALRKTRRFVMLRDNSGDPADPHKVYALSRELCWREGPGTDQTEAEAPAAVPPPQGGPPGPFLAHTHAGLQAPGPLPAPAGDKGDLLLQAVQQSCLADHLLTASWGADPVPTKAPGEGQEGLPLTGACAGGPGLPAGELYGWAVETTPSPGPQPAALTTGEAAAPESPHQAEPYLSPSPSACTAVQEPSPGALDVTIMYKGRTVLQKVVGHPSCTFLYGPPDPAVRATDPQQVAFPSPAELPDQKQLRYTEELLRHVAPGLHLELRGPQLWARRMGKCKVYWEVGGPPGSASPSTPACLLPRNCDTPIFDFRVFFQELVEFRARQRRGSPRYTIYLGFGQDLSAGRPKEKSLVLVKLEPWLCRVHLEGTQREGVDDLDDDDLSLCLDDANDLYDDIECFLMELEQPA
Strand | log fluorescence
GCCTAGCACTTTTTTTTTTTTTTTGTATTGTGCTAGGTCTTGATTCGCTTGACGCTGCTG | 0.653 z-score
GCCTAGCACGACGGACTGGATACTGGGGACGTGCTAGTCTTGATTCGCTTGACGCTGCTG | -0.875 z-score
GCCTAGCACGACGGTTCCAGTTTCGGGACGTGCTAGGTCTTGATTCGCTTGACGCTGCTG | 3.67 z-score
GCCTAGCACGACGATATCGGGTGTCGAGACGTGCTAGTCTTGATTCGCTTGACGCTGCTG | -0.379 z-score

Set 2
Target: RNA binding protein fox-1 homolog 2, RRM domain, GST-SBP tag (RBFOX2, Homo sapiens, UniProt O43251-10, residues 100-194)
Technique: RNA Bind-n-Seq
Form: RNA
Sample: in vitro
Concentration: 365 nM
Setting: natural RNA segment, single round, ends assumed
Relative to: no-protein control
Reading: higher = stronger binding
Residues (chain): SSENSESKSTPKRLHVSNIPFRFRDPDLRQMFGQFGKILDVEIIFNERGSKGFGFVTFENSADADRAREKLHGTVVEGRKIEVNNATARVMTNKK
Strand | RBNS enrichment (R)
GGGAGUUCUACAGUCCGACGAUCAAGCUUUUUUUUCUAGAUUUGACAUUUUUCUGUAUCAUUUUACUGUAUUUUUGCAUGGUUCCUUGUAUUGCAUUUCUUUGCACAUAUUAUGGGCUUGUGACCCUAAACUUUGGAAUUCUCGGGUGCCAA | 22.2
GGGAGUUCUACAGUCCGACGAUCAUAGUAAUUAAGAUAUAGCUUCAAAAAUGGCUUUGCUUUUGAUUUCUACUCAUAUUCGUAUGGCUCCAGAAAAAUAUUUUUUUCAUAUUUGACAAUGUCAGCUCCACUUUUGGAAUUCUCGGGUGCCAA | 0.431
GGGAGUUCUACAGUCCGACGAUCCCACUGUCCCAUCACCCUUUACCUAGCACUUGAUACCCUCCUGCAGUAGCUUCCUGCCUGGGAGAUGGCUCUCUCUGCAGAAGUCUGGUGUUUUAGCCUUCAGGUGUUUGUGGAAUUCUCGGGUGCCAA | 0.358
GGGAGUUCUACAGUCCGACGAUCUGUAAAUGGAAAUUUUUCCUUAAAAUACAACACAAUGAUGUCUGUAUAAAUCUGUCUGUUUAGAAUCUGUGCUGUGUAAGGGCAUUCGUACUCAUGCUGUUACUGUACUUUGGAAUUCUCGGGUGCCAA | 0.434

Set 3
Target: Sal-like protein 4, full length isoform A (SALL4, Homo sapiens, UniProt Q9UJQ4, residues 1-1053)
Chain of UniProt Q9UJQ4 (whole entry, looked up): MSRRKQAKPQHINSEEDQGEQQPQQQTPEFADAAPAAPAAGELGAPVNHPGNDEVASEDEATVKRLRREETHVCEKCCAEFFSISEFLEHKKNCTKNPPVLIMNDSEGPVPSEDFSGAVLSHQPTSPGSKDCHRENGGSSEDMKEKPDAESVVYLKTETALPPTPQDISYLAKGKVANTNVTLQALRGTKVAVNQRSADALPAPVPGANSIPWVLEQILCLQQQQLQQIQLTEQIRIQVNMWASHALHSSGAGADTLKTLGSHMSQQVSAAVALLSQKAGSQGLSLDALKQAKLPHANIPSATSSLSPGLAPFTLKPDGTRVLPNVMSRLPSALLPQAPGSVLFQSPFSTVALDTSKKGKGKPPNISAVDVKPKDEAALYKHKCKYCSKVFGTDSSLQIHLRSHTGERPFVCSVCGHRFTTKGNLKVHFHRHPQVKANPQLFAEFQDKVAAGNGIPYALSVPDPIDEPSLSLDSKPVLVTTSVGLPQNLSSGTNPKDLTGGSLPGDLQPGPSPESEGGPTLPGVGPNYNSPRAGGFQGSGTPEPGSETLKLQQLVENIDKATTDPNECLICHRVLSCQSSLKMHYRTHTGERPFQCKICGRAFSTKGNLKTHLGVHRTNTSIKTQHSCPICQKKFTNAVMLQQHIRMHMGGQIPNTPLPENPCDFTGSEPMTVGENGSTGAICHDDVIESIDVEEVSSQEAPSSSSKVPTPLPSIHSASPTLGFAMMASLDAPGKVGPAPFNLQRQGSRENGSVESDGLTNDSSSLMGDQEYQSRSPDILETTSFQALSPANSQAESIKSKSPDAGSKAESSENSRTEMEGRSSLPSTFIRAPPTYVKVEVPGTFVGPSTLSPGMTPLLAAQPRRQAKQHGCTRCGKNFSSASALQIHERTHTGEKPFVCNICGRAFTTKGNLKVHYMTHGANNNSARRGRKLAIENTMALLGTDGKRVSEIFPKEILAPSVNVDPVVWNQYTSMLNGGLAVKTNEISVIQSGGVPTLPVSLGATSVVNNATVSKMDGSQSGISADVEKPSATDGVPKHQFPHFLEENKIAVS
Technique: universal PBM
Form: double-stranded DNA, one strand shown
Sample: in vitro
Concentration: 600 nM
Setting: 8-mer, flanks averaged, mean of replicates
Reading: higher = stronger binding
Strand | E-score
CCTAACAA | 0.235
CAATTGGG | -0.155
CCCCTTCC | -0.32
TTGGTAAA | 0.245

Further values, each from its own experiment
Substance | target | test | test system | conditions | how to read | quantity | result
PhoQ, residues 284 288 289 292 302 303 TYGVAM | PhoP, residues 12 14 15 18 19 LHATL (Escherichia coli, UniProt P23836) | Sort-seq, refers to: YFP reporter | E. coli | PhoQ-PhoP variant library, added: 10 µM Mg2+ | relative to: high Mg2+ state, higher = stronger signaling | fold induction | 8.42

Excerpt of the above (set 1):
Strand | log fluorescence
GCCTAGCACGACGATATCGGGTGTCGAGACGTGCTAGTCTTGATTCGCTTGACGCTGCTG | -0.379 z-score
